Measurements gathered from unrelated publications.
Lines come from different studies, so protocols differ. Numbers after ± are the reported error.
Cell line: HaCaT

SMILES	read-out	method	tested at	time	setting	endpoint	result
CSCC[C@H](N)C(=O)N[C@@H](Cc1ccc(O)cc1)C(=O)N[C@@H](Cc1ccccc1)C(=O)O	–	CCK-8	10 µg/mL	72 h	0.4 % serum	viability	126 ± 3.23%
O=c1oc2cc(O)cc3c2c2c(cc(O)cc12)CC3	cell growth or viability	MTT	–	48 h	–	IC50	113 µM
CCCCCCCCCCCCCCCCCCCC(=O)N[C@@H](CCCCN)C(=O)N[C@@H](CCCCN)C(=O)N[C@@H](CCCCN)C(=O)N[C@@H](CCCCN)C(=O)N[C@@H](CCCCN)C(N)=O	cytotoxicity	–	–	–	–	IC50	35.9 µg/mL
NC(=O)C[C@H](N)C(=O)N[C@@H](Cc1ccccc1)C(=O)N[C@@H](Cc1ccccc1)C(=O)O	–	CCK-8	10 µg/mL	72 h	0.4 % serum	viability	135 ± 9.06%
CCOP(=O)(OCC)C(Cc1cccc(F)c1F)Nc1cccc(C)c1 (centres unmarked)	cell growth or viability	MTT	–	48 h	–	IC50	67.9 µM
CCCCCCCCCCCCCCCCCC(=O)N[C@@H](CCCN)C(=O)N[C@@H](CCCN)C(=O)N[C@@H](CCCN)C(=O)N[C@@H](CCCN)C(=O)N[C@@H](CCCN)C(N)=O	cytotoxicity	–	–	–	–	IC50	37.1 µg/mL
CCOP(=O)(OCC)C(Cc1cc(F)c(F)c(F)c1)Nc1ccccc1 (centres unmarked)	cell growth or viability	MTT	–	48 h	–	IC50	33.2 µM
CCCCN(CCCC)CC(O)COc1c2ccoc2c(OC)c2oc(CC)cc(=O)c12 (centres unmarked)	cell growth or viability	MTT	–	72 h	–	IC50	43.4 µM
CCCCCCCCCCCCCC(=O)N[C@@H](CCCCN)C(=O)N[C@@H](CCCCN)C(=O)N[C@@H](CCCCN)C(=O)N[C@@H](CCCCN)C(=O)N[C@@H](CCCCN)C(N)=O	cytotoxicity	–	–	–	–	IC50	21.4 µg/mL
CCn1cc(/C=C/c2sc3ccccc3[n+]2CC)c2ccccc21	cell growth or viability	MTT	–	24 h	–	IC50	3.31 µM
CCOP(=O)(OCC)C(Cc1ccccc1F)Nc1ccccc1 (centres unmarked)	cell growth or viability	MTT	–	48 h	–	IC50	61.8 µM
CC(C)=CCc1c(-c2cc(O)c(O)cc2O)oc2c(CC=C(C)C)c(O)cc(O)c2c1=O	cell growth or viability	MTT	–	72 h	–	IC50	92 µM
CCCCCCCCCCCCCCCCCC(=O)N[C@@H](CCCCN)C(=O)N[C@@H](CCCCN)C(=O)N[C@@H](CCCCN)C(=O)N[C@@H](CCCCN)C(=O)N[C@@H](CCCCN)C(N)=O	cytotoxicity	–	–	–	–	IC50	52 µg/mL
Brc1ccc2nc3c4ccc[n+]5c4c4c(ccc[n+]4[Ru-4]546([n+]5ccccc5-c5cccc[n+]54)[n+]4ccccc4-c4cccc[n+]46)c3nc2c1.[O-][Cl+3]([O-])([O-])O.[O-][Cl+3]([O-])([O-])O	cell growth or viability	MTT	–	72 h	–	IC50	> 100 µM

Excerpt of the above:
SMILES	read-out	method	tested at	time	setting	endpoint	result
Brc1ccc2nc3c4ccc[n+]5c4c4c(ccc[n+]4[Ru-4]546([n+]5ccccc5-c5cccc[n+]54)[n+]4ccccc4-c4cccc[n+]46)c3nc2c1.[O-][Cl+3]([O-])([O-])O.[O-][Cl+3]([O-])([O-])O	cell growth or viability	MTT	–	72 h	–	IC50	> 100 µM
CCCCN(CCCC)CC(O)COc1c2ccoc2c(OC)c2oc(CC)cc(=O)c12 (centres unmarked)	cell growth or viability	MTT	–	72 h	–	IC50	43.4 µM
